Published values pooled from the literature.
Parts stem from different laboratories: compare values within a part only. Numbers after ± are the reported error.
UniProt P30803, sequence (whole entry, looked up): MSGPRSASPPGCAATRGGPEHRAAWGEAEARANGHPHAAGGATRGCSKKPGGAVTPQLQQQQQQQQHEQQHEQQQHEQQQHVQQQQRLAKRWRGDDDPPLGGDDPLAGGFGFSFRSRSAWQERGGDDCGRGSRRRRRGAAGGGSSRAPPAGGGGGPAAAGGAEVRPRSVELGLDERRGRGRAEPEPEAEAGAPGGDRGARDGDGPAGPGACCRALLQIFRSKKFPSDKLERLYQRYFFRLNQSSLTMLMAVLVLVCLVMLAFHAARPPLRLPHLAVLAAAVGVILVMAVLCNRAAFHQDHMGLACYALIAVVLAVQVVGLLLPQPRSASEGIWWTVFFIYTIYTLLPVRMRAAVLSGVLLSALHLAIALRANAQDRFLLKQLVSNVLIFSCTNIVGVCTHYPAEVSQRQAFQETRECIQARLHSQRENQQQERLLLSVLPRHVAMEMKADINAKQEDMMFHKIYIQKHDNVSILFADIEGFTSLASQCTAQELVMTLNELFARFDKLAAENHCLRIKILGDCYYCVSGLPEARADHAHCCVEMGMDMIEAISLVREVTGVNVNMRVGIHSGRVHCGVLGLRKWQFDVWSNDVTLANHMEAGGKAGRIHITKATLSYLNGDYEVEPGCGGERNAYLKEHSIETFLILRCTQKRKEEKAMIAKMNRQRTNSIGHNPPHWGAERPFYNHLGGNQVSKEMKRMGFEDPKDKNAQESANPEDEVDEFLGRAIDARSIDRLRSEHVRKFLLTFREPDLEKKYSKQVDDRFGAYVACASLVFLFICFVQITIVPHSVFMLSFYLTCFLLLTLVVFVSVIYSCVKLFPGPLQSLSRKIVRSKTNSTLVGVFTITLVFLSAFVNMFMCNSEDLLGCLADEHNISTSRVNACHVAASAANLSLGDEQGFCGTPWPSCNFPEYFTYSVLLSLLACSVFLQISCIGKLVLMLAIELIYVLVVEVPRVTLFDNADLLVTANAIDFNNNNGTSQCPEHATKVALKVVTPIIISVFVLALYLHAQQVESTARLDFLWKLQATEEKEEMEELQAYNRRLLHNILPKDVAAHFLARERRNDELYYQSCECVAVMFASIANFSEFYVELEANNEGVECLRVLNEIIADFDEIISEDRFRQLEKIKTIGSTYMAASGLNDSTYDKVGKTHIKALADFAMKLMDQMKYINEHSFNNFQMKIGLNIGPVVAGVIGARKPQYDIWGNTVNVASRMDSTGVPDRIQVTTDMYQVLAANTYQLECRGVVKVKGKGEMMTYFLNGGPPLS

Series 1 — cell line: NB-4 APL cells; measurement: IC50
NC1CC1c1ccc(NC(=O)C(NC(=O)OCc2ccccc2)C(c2ccccc2)c2ccccc2)cc1 (centres unmarked): 8.7 ± 1 µM
NC1CC1c1ccc(NC(=O)Cc2ccccc2)cc1 (centres unmarked): 42.4 ± 6.2 µM
CC(C)CC(NC(=O)OCc1ccccc1)C(=O)Nc1ccc(C2CC2N)cc1 (centres unmarked): 46.7 ± 6.2 µM

Other studies, line by line
CC[C@H](C)[C@H](NC(=O)[C@H](CC(C)C)NC(=O)[C@H](CCCCN)NC(=O)[C@@H](NC(=O)[C@H](C)NC(=O)[C@H](CCC(=O)O)NC(=O)[C@H](Cc1c[nH]cn1)NC(=O)[C@@H](NC(=O)[C@H](CCCCN)NC(=O)[C@H](CCC(N)=O)NC(=O)[C@H](Cc1ccccc1)NC(=O)[C@@H](NC(=O)[C@H](CCCCN)NC(=O)[C@H](CCCCN)NC(=O)[C@H](CC(C)C)NC(=O)[C@H](C)NC(=O)[C@H](CC(N)=O)NC(=O)[C@@H](N)CC(C)C)C(C)C)[C@@H](C)CC)[C@@H](C)CC)C(N)=O — HC10 (mouse erythrocytes): 100 µM
CC(C)(C)[C@H]1CC[C@H](Oc2cc([18F])c3ccccc3c2CN2CCC(C(=O)O)CC2)CC1 — parent radiotracer (macaque, plasma; 5 min; reference: radioactivity): ~100%
CC[C@H](C)[C@H](NC(=O)[C@H](CCCCN)NC(=O)[C@H](CCC(N)=O)NC(=O)[C@H](Cc1ccccc1)NC(=O)[C@@H](NC(=O)[C@H](CCCCN)NC(=O)[C@H](CCCCN)NC(=O)[C@H](CC(C)C)NC(=O)[C@H](C)NC(=O)[C@H](CC(N)=O)NC(=O)[C@@H](N)CC(C)C)C(C)C)C(=O)N[C@@H](Cc1c[nH]cn1)C(N)=O — PI-positive cells (Staphylococcus aureus; membrane integrity, flow cytometry; USA300; 1 x MIC, 1 h): 67%
CNc1ccccc1C(=O)O[C@H]1[C@@H](O)[C@H](n2cnc3c(N)ncnc32)O[C@@H]1COP(=O)(O)OP(=O)(O)O — Ki (ADCY5 (Canis lupus, UniProt P30803); adenylyl cyclase activity, inhibitor; Sf9 membranes; added: 5 mM MnCl2 100 µM forskolin): 790 ± 180 nM
CC[C@H](C)[C@H](NC(=O)[C@H](C)NC(=O)[C@H](CCC(=O)O)NC(=O)[C@H](Cc1c[nH]cn1)NC(=O)[C@@H](NC(=O)[C@H](CCCCN)NC(=O)[C@H](CCC(N)=O)NC(=O)[C@H](Cc1ccccc1)NC(=O)[C@@H](NC(=O)[C@H](CCCCN)NC(=O)[C@H](CCCCN)NC(=O)[C@H](CC(C)C)NC(=O)[C@H](C)NC(=O)[C@H](CC(N)=O)NC(=O)[C@@H](N)CC(C)C)C(C)C)[C@@H](C)CC)C(=O)N[C@@H](CCCCN)C(N)=O — geometric mean MIC (Gram-positive and Gram-negative bacteria): 6.73 µM
